Results from different studies.
A part holds a random share of what one study measured.
UniProt Q15375, sequence (whole entry, looked up): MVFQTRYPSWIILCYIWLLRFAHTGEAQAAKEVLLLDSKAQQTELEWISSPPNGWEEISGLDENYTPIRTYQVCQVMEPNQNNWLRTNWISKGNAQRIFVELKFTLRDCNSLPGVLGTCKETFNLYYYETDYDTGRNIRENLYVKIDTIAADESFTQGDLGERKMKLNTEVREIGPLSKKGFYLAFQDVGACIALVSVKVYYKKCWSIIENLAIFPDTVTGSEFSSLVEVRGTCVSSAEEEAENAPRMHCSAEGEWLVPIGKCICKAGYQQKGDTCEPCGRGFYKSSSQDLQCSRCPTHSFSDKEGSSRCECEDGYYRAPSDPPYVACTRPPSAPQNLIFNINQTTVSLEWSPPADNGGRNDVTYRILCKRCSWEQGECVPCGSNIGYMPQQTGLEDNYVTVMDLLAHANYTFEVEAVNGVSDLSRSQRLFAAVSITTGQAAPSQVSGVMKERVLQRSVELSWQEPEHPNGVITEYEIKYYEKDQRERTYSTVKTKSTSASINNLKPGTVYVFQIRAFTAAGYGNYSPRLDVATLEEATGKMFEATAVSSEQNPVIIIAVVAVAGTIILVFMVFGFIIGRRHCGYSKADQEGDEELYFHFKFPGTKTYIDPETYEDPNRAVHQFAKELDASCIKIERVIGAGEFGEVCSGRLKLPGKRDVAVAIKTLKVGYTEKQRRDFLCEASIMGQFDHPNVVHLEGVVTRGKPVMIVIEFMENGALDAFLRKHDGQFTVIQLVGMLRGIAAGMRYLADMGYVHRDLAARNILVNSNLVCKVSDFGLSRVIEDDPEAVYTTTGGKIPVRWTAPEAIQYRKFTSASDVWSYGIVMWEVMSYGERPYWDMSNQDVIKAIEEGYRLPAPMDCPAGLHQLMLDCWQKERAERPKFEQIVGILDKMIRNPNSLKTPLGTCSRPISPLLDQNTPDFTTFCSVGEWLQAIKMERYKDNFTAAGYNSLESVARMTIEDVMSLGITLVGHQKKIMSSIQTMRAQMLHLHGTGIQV
UniProt Q9H2K8, sequence (whole entry, looked up): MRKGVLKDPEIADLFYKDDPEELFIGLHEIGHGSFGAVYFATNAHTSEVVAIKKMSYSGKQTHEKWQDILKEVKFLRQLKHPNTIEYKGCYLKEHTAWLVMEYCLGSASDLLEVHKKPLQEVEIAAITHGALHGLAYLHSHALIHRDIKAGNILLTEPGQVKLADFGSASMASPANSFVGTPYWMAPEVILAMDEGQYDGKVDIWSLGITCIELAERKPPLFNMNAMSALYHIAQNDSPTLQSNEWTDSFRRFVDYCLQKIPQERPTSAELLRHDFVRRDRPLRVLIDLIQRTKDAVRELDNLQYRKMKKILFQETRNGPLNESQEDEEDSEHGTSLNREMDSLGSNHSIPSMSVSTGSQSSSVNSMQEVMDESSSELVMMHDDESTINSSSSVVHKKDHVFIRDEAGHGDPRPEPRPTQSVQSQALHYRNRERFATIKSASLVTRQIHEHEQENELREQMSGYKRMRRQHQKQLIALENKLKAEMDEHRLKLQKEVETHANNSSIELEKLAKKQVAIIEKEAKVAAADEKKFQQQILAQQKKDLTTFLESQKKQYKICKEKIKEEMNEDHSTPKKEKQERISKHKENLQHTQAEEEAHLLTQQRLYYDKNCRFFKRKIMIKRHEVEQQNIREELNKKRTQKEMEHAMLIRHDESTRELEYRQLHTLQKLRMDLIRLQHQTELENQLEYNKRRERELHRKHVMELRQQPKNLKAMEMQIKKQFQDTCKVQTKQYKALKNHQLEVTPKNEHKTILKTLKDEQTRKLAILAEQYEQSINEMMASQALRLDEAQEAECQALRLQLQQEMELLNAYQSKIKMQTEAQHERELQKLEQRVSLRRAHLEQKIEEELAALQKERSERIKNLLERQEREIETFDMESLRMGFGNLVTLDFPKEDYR
UniProt Q56UN5, sequence (whole entry, looked up): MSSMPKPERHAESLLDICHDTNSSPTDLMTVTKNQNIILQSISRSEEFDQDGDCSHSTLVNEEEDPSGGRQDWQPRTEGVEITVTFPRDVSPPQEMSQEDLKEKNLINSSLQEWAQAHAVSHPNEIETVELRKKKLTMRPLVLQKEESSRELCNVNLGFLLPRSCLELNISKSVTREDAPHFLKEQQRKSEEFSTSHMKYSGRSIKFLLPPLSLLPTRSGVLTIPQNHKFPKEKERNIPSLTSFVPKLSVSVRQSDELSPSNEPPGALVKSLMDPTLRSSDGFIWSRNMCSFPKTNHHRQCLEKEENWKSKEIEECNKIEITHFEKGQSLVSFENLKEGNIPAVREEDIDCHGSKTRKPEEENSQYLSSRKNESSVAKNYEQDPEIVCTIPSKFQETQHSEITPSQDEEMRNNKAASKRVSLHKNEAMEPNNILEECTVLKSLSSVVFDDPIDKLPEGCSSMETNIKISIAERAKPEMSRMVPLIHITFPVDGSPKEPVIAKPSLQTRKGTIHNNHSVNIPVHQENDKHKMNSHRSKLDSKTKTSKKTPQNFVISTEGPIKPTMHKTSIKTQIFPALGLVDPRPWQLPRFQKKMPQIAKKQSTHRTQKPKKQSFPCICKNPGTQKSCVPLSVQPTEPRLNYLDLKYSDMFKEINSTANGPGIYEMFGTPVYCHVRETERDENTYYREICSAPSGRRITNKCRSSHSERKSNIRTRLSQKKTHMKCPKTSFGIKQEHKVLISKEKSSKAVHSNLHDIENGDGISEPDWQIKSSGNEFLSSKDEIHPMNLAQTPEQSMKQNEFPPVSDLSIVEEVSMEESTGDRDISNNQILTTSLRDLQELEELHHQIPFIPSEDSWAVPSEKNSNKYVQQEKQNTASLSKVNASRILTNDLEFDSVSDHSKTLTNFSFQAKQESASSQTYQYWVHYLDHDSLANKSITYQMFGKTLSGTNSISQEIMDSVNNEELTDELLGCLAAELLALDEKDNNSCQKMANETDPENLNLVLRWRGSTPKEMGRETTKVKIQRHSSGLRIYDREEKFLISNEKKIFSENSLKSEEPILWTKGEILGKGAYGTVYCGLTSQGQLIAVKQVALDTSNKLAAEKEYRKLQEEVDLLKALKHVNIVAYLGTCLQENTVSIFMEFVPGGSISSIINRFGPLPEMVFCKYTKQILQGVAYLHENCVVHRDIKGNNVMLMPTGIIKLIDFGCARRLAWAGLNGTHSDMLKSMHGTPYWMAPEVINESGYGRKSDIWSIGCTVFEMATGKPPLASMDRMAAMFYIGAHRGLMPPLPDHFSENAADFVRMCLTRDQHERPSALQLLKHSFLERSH
UniProt P45985, sequence (whole entry, looked up): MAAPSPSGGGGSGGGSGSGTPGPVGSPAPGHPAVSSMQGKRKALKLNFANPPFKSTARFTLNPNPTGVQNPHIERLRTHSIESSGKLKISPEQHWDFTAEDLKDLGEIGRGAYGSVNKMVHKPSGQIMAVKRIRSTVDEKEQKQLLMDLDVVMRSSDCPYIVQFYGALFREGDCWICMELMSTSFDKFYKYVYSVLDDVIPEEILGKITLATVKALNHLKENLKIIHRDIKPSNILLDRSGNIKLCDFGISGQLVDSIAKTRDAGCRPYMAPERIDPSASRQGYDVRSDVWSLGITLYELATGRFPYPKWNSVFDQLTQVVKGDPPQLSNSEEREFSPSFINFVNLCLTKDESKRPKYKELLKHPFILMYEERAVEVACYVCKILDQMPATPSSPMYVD

Study 1 — technique: protein-binding microarray; molecule type: double-stranded DNA, one strand shown; medium: in vitro; tested at: 2540 nM top; setting: 60-bp whole probe; together with: salmon DNA 0.4 mg/ml; reference: random background probes; direction: higher = stronger binding; constant ends, left off below: GCCTAGCAC … GTCTTGATTCGCTTGACGCTGCTG
Target: Interferon regulatory factor 3, full length, phosphomimetic (IRF3, Homo sapiens, UniProt Q14653, residues 1-427, S386D/S396D/S398D/S402D/T404D/S405D)
Residues (chain): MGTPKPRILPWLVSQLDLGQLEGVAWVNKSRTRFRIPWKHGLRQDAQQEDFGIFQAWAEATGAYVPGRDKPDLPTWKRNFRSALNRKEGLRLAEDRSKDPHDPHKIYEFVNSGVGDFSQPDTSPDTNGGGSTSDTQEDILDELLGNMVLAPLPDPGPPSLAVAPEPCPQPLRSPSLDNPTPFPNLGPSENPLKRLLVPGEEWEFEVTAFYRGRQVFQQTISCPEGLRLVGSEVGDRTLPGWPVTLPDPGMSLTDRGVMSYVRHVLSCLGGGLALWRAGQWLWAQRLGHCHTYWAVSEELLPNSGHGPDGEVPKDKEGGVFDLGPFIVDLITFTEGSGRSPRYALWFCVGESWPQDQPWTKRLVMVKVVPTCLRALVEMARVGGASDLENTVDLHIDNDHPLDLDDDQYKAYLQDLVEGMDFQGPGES
For `TTAGGTATCCTATTGCTTTAGTGCTAG`, “fitted relative affinity” read 3.69 z-score.
`TTAGGTTTCGTTATCCTTTAGTGCTAG` — result for “fitted relative affinity”: 6.64 z-score.
`GACGATATCGGGACTGAAGACGTGCTA`: “fitted relative affinity” 0.368 z-score.
`GGATGTGTCTTAAATAGGGGAGTGCTA`: “fitted relative affinity” 0.168 z-score.
Under “fitted relative affinity”, `GACGGTATCGACATTCGGGACGTGCTA` is recorded as 0.798 z-score.
For `CTGGTGCTCATCTGTCATGTTGTGCTA`, “fitted relative affinity” read 0.175 z-score.
`GACGATAACAGTATCGAGACGTGCTAG` — result for “fitted relative affinity”: 0.151 z-score.
Under “fitted relative affinity”, `TCAGCTCCCTTTCTCTCTGTGTGCTAG` is recorded as 2.92 z-score.

Study 2 — read-out: cell-free assay; technique: competition with immobilised ligand; tested at: 1 µM
SMILES: Cc1c(NC(=O)c2cc(C(N)=O)nc3cc(F)ccc23)c(C(F)(F)F)nn1Cc1ccc(C(C)(C)C)cc1
It gave 100% for remaining binding (Dual specificity mitogen-activated protein kinase kinase 4 (MAP2K4, Homo sapiens, UniProt P45985)).
Epidermal growth factor receptor (EGFR, Homo sapiens, UniProt P00533, del746-750) — remaining binding: 100%.
It gave 91% for remaining binding (Dual specificity mitogen-activated protein kinase kinase 1 (MAP2K1, Homo sapiens, UniProt Q02750)).
It gave 100% for remaining binding (Myosin light chain kinase family member 4 (MYLK4, Homo sapiens, UniProt Q86YV6)).
For Receptor-type tyrosine-protein kinase FLT3, autoinhibited (FLT3, Homo sapiens, UniProt P36888): remaining binding read 100%.
It gave 100% for remaining binding (Ephrin type-A receptor 7 (EPHA7, Homo sapiens, UniProt Q15375)).
It gave 45% for remaining binding (Serine/threonine-protein kinase TAO3 (TAOK3, Homo sapiens, UniProt Q9H2K8)).
Mitogen-activated protein kinase kinase kinase kinase 2 (MAP4K2, Homo sapiens, UniProt Q12851) — remaining binding: 100%.
It gave 100% for remaining binding (BMP-2-inducible protein kinase (BMP2K, Homo sapiens, UniProt Q9NSY1)).
Serine/threonine-protein kinase STK11 (STK11, Homo sapiens, UniProt Q15831) — remaining binding: 100%.
Serine/threonine-protein kinase MRCK beta (CDC42BPB, Homo sapiens, UniProt Q9Y5S2) — remaining binding: 96%.
It gave 100% for remaining binding (SRSF protein kinase 1 (SRPK1, Homo sapiens, UniProt Q96SB4)).
The remaining binding was 85% (Mitogen-activated protein kinase kinase kinase 19 (MAP3K19, Homo sapiens, UniProt Q56UN5)).
For Ephrin type-A receptor 8 (EPHA8, Homo sapiens, UniProt P29322): remaining binding read 100%.

Study 3 — read-out: enzyme activity; mode: inhibitor; tested at: 0.5 µM; reference: control
Target: Calcium/calmodulin-dependent protein kinase type 1G (CAMK1G, Homo sapiens, UniProt Q96NX5)
UniProt Q96NX5, sequence (whole entry, looked up): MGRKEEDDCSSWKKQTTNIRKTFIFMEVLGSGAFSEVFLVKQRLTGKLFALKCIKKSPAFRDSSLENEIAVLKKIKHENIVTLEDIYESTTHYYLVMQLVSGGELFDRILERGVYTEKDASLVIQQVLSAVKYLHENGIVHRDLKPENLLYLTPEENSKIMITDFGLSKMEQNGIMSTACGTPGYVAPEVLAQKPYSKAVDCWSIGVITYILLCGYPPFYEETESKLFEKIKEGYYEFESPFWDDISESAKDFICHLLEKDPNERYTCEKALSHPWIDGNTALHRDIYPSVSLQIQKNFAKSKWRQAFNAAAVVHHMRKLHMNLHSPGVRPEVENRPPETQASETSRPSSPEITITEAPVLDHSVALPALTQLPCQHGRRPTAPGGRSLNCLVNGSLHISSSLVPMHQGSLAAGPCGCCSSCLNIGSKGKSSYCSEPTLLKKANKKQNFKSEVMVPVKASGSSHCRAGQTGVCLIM
For `CCCCc1c(-c2ccc(OC)cc2)[nH]c2nccnc12`, the remaining activity was 102%.
For `O=c1c(-c2ccc(F)cc2)c(-c2ccncc2)[nH]n1-c1ccc(Cl)cc1`, the remaining activity was 104%.
The remaining activity of `CN(C)S(=O)(=O)c1ccc2c(c1)/C(=C/c1cc3c([nH]1)CCCC3)C(=O)N2` is reported as 97.1%.
The remaining activity of `CCN(CC)CCCCN1c2ccccc2Oc2ccc(Cl)cc21` is reported as 99.2%.
`O=C1c2ccccc2-c2nc3nnnn3nc21` gave a remaining activity of 28.5%.
With `C[C@@H](N)[C@H]1CC[C@H](C(=O)Nc2ccncc2)CC1` the remaining activity was 99.3%.
`N#C/C(=C(/N)SC1C=CC=CC1)c1cccc(C(O)c2ccncc2)c1` (stereo not shown) has a remaining activity of 93.8%.
For `O=C1NC(=O)c2c1c1c3ccccc3[nH]c1c1[nH]c3cc(Br)ccc3c21`, the remaining activity was 94.5%.
For `c1ccc2c(-c3ccncc3)c[nH]c2c1`, the remaining activity was 99%.
The remaining activity of `c1cc(-c2cnn3cc(-c4ccc(OCCN5CCCCC5)cc4)cnc23)ccn1` is reported as 99.9%.
`Clc1ccc(Nc2nnc(Cc3ccncc3)c3ccccc23)cc1` gave a remaining activity of 107%.
`CC(C)n1cnc2c(Nc3cccc(Cl)c3)nc(NCCO)nc21` has a remaining activity of 98.7%.
`CCCNC(=O)Nc1ccc(Oc2ncnc3cc(OC)c(OC)cc23)cc1Cl` has a remaining activity of 103%.
For `O=C(O)/C=C/c1cc(Br)c(Br)c(Br)c1Br`, the remaining activity was 94.1%.
The remaining activity of `CC(C)(C)c1nc2c3cc[nH]c(=O)c3c3cc(F)ccc3c2[nH]1` is reported as 95.3%.
With `c1ccc(-c2n[nH]c3c2oc2ccccc23)cc1` the remaining activity was 100%.

Study 4 — technique: protein-binding microarray; molecule type: double-stranded DNA, one strand shown; medium: in vitro; tested at: not given; direction: higher = stronger binding
Target: Protein C-ets-1 (ETS1, Homo sapiens, UniProt P14921, residues 1-441, Y397A, full length assumed)
Setting: k-mer, scored over probes, only values ≥0.25
Residues (chain): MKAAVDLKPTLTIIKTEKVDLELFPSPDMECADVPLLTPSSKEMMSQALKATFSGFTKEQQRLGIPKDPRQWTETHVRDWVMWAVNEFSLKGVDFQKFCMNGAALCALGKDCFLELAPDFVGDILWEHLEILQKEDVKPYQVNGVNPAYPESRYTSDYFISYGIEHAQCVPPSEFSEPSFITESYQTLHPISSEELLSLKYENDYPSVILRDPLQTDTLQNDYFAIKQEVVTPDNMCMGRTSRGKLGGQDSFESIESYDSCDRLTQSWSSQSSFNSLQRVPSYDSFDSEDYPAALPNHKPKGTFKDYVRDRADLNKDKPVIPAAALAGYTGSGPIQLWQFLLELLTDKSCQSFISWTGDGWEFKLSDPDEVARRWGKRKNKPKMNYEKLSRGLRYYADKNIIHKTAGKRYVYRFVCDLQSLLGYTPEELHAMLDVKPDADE
For `AACCAACA`, the E-score was 0.271.
With `ATTTGGCA` the E-score was 0.328.
With `ATATTTGC` the E-score was 0.25.
The E-score of `GCGGAAGC` is reported as 0.388.
The E-score of `CCGCAAAC` is reported as 0.311.
For `ATTGGCAC`, the E-score was 0.326.
`ACGTCCGG` gave an E-score of 0.33.
`CGGATGCA` gave an E-score of 0.282.

Repeated from above (study 1):
`TTAGGTTTCGTTATCCTTTAGTGCTAG` — result for “fitted relative affinity”: 6.64 z-score.
`GACGATATCGGGACTGAAGACGTGCTA`: “fitted relative affinity” 0.368 z-score.
`GGATGTGTCTTAAATAGGGGAGTGCTA`: “fitted relative affinity” 0.168 z-score.
Under “fitted relative affinity”, `GACGGTATCGACATTCGGGACGTGCTA` is recorded as 0.798 z-score.
For `CTGGTGCTCATCTGTCATGTTGTGCTA`, “fitted relative affinity” read 0.175 z-score.
`GACGATAACAGTATCGAGACGTGCTAG` — result for “fitted relative affinity”: 0.151 z-score.
Under “fitted relative affinity”, `TCAGCTCCCTTTCTCTCTGTGTGCTAG` is recorded as 2.92 z-score.
